Experimental data from different studies.
Every numbered part comes from another study and shows a few of its results, in no order. Substitutions count along the parent as printed.

Series 1
Target: RING finger protein unkempt homolog, zinc fingers 1-6, SBP tag (UNK, Homo sapiens, UniProt Q9C0B0, residues 30-357)
Sequence of UniProt Q9C0B0 (30-357, looked up): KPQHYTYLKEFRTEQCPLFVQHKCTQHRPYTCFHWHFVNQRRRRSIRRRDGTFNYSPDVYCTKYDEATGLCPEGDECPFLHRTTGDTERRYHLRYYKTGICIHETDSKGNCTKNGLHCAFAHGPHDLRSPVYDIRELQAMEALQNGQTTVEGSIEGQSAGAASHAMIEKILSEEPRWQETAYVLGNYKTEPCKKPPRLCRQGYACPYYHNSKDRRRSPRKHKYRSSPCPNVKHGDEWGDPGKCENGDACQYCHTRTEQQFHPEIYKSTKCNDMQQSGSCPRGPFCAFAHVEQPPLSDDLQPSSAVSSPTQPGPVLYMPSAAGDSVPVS
Method: RNA Bind-n-Seq
Form: RNA
Matrix: in vitro
Concentration: 100 nM
Notes: RNA with constant flanks, vertebrate orthologous sites, ends assumed
Relative to: input RNA pool
Direction: higher = stronger binding
Shared flanks, not repeated: GGGAGUUCUACAGUCCGACGAUC … CAACAGAGGAUUGAGCAUCA
`ACCGUAGCGAGAGCCAAGCAGGUGGCAUUGUCUUUUUCUUUUGUAAAUGUAAAAAAUAAUUCGAUCCAGACUUUCCUUCUUUGAUUUUAAAAAUAAAAAUACCUCAGUGCUGUUUCCCAG` has a bound/input enrichment of 0.501 ratio.
The bound/input enrichment of `GUUUUUUUGUUUUGCACAUGACCGUGUGUGUGUUGAUCUGAGGGAGGAGGAGGGGUCCUGGAGCAGUUGGGUCUCCAGUGCCACCACCCUCACCAUCCGACCUGGUACCUUUGCCACGUU` is reported as 0.312 ratio.
`GAACUUAUGCUCUUCCAGGGAAGAGAUGAAUUGGGAAAAAACCUUCUCCUUUUUAUAGAUUAGUUUGUUUCUAAAUUAUGACCAAAAAAUAUUUUGCUAUUUCUUUCUUUAUAUAUAGAC` has a bound/input enrichment of 0.925 ratio.
With `AGGAAAUGCUGGCUGCAAACCCUCAGGAUCGUCCAGAUGCUUUUGAACUAGAACUCAGAUUAGUACAAAUUGCAUUUAAAGAUAGCAGCUGGGAAACGUGACACAUACAUUAUUUGCAAA` the bound/input enrichment was 0.83 ratio.
The bound/input enrichment of `GGAGGAAGGGCUCACAAACUCAAAGGAAAAAACUAUUAAGAGUUUCUAGUAGUUAAAAGCUAGAAAGAUUAAGACAACUUUACAAAUGAACAAUUAAAAAGAAAAAGGAUAUGGAAACUA` is reported as 0.543 ratio.

Series 2
Target: CCNA1, cyclin fold, Cln2 fusion (human)
Method: yeast growth competition, sequencing
Matrix: yeast
Notes: weak parent motif
Relative to: not given
Direction: higher = stronger binding
Starting sequence: INSM1 docking peptide (human); PKAIRKLHFEDEV; partner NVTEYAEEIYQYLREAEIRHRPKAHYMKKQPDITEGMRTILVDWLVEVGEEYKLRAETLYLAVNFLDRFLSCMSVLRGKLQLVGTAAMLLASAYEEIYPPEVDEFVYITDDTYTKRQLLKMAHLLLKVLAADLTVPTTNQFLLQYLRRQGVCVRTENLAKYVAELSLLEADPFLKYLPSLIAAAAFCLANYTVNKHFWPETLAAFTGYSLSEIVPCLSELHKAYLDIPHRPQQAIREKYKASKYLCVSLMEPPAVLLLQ
For `PKAIRDLHFEDEV [K6D]`, “normalised enrichment score” read 0.0639.
For `PKAIKKLHFEDEV [R5K]`, “normalised enrichment score” read 0.585.
`PKAIRKLHIEDEV [F9I]` — result for “normalised enrichment score”: -0.447.
For `PKANRKLHFEDEV [I4N]`, “normalised enrichment score” read 0.692.
Under “normalised enrichment score”, `PKCIRKLHFEDEV [A3C]` is recorded as 1.25.

Series 3
Target: Histone acetyltransferase KAT6A, winged helix 1, GST fusion (KAT6A, Homo sapiens, UniProt Q92794, residues 1-85)
Method: protein binding microarray
Form: double-stranded DNA, one strand shown
Matrix: in vitro
Concentration: not given
Notes: 8-mer, flanks averaged, mean of 2 arrays, mostly near background
Relative to: not given
Direction: higher = stronger binding
Residues (chain): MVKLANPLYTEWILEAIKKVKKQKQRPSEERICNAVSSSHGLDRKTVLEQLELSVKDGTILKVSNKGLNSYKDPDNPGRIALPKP
For `ATAAATGA`, the E-score was -0.304.
The E-score of `CATGCTGC` is reported as -0.0333.
`CTTTACAA` has an E-score of -0.165.
With `AATGGTCT` the E-score was -0.159.
With `ACGATTCA` the E-score was -0.0375.
`CCTGGTTA` has an E-score of -0.269.
The E-score of `TATCACGA` is reported as -0.22.
For `CGTTAAAC`, the E-score was 0.00116.
The E-score of `AATATTAC` is reported as 0.115.
`AGATTGCT` has an E-score of -0.0971.

Single results of other studies
The fold induction of `PhoQ, residues 284 288 289 292 302 303 AAQSYM` is reported as 2.83 (PhoP, residues 12 14 15 18 19 VQALL (Escherichia coli, UniProt P23836); Sort-seq, measured: YFP reporter; E. coli; PhoQ-PhoP variant library, with: 10 µM Mg2+; relative to: high Mg2+ state, higher = stronger signaling).
